Experimental data gathered from unrelated publications.
Lines come from different studies, so protocols differ. Values joined by “and” are separate records of one study, mostly repeats; a detail may differ.
B1: enzyme (Ectocarpus siliculosus, UniProt D7FYY3); chain KTASLATVSSLGIDKATGITKPSTVHHNLPYPQVFEHETKNKEGESTANGTFCVSTGQFTGRSPKDKYFVQQAPSDKTLDWGKINVGVAPKVFENIYNKAVKHYNDNVDSMYVFDGYCGTSPKSRKNVRIITELAWQHHFAKNMFIRPETEAETAGFKPDFTIINACKVVNDDYKELGLNSEVAVVFNVEERKAVITGTWYGGEMKKGIFSMMNYWLPLDGVMAMHCSANKGKNGDTALFFGLSGTGKTTLSADPERYLIGDDEHGWDDDGIFNFEGGCYAKTINLSHENEPEIYDAIKRDALLENVVIKDNGEPDYTDVSKTENTRVSYPIYHIDNYEPSGMGGHPNSVIFLTCDAFGILPPVSRLSAGQAMYHFLSGYTAKVAGTERGVTEPTPNFSAGFGAAFLTLHPTMYADLLQKKLAKHGTQCYLINTGWTGGGYGVGKRMSIKATRACVDAVLDGSIGKTTFTPDPVFGFEVPAELPGVPAKVLNPREAWSDKKGYDATRTKLAGMFKDNFTKFVKPGVTDYTSYGPK
B2: enzyme (UniProt A0A097IUE6); chain TKRAMMATVSSLGIDKATGITKPSKVHRNLPYPEVFEHEQKNKEGEVTKNGTFCVSTGAFTGRSPKDKYFVHQSPSCDTLDWGKINVGVAPDVYKNIYEKAVKHYNENVDSMYVFDGYCGTSPKSRKNVRIITELAWQHHFAKNMFIRPDSEKEVENFNPDFTIINACKVLNKDYKELGLNSDVAVIFNVEEKMAVITGTWYGGEMKKGIFSMMNYWLPLDGIMAMHCSANKGKGGDTALFFGLSGTGKTTLSADPDRYLIGDDEHGWDDHGIFNFEGGCYAKTVNLSKDNEPEIYDAIKRDALLENVIIKSDGEPDYTDTSRTENTRVSYPIYHIDNHEPSGMGGHPTSIIFLTCDAFGVLPPVSRLSGGQAMYHFLSGYTAKVAGTERGVTEPTPNFSACFGAAFLTLHPTKYADLLQKKLDKHQTQCFLINTGWTGGGYGVGKRMSIKATRACVNAVLDGSINKANFTNDEVFGFEVPAELPEVPAQVLNPRAAWSDKEKYDNTRIKLAGMFKDNFKKFIKEGATDYSSYGPK
B3: enzyme (Arabidopsis thaliana, UniProt Q9FJN8); chain TSGGGYGDPSQKIDYVFKVVLIGDSAVGKSQILARYARDEFSLDSKATIGVEFQTRTLVIDHKSVKAQIWDTAGQERYRAVTSAYYRGAVGAMLVYDITRRQTFDHIPRWLEELRAHADKNIVIILIGNKSDLVDQRAIPTEDAKEFAEKEGLFFLETSAFNATNVESAFSTVLTEIFNIVNKKSLAASEDQENGNPGSLAGKKIDIVPGPGQVIPNKSNMCCNS
B4: enzyme (Trypanosoma brucei, UniProt Q9GV41); chain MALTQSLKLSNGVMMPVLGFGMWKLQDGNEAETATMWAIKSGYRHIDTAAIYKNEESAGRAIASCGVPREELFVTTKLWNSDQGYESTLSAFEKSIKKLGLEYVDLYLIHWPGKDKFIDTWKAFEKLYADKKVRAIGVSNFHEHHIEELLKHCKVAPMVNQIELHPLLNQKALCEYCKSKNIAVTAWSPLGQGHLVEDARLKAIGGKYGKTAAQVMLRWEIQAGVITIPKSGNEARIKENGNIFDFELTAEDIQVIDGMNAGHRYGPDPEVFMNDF
B5: RABE1C (Arabidopsis thaliana, UniProt P28186); chain MAAPPARARADYDYLIKLLLIGDSGVGKSCLLLRFSDGSFTTSFITTIGIDFKIRTIELDGKRIKLQIWDTAGQERFRTITTAYYRGAMGILLVYDVTDESSFNNIRNWIRNIEQHASDNVNKILVGNKADMDESKRAVPTAKGQALADEYGIKFFETSAKTNLNVEEVFFSIGRDIKQRLSDTDSRAEPATIKISQTDQAAGAGQATQKSACCGT
B6: enzyme C76S (UniProt A0A0P0CH59); chain MRIALFSDIHANLPALEAVLANMETQQLDAIYCLGDLVGYAPWPNEVVAEIRKRRIPTIAGNYDEGVGLWSPNCGSAYKTDTEKDLGQQSIDFTNNVVTEETRKYLRMLPRQLRLTFMDGSKEENKIELLLVHGSPRKINEYLFEDRPEKSFLKMMEEANADLLFFGHTHKPYHRAMPYEHEGQTRYRHAINIGSVGKPKDGDPRTGYVVVELTPESSLTQKDSIKVEFIRVPYDVETAAQAVEASPLPNEFAQMLRTA
Sequence of UniProt Q9C969 (whole entry, looked up): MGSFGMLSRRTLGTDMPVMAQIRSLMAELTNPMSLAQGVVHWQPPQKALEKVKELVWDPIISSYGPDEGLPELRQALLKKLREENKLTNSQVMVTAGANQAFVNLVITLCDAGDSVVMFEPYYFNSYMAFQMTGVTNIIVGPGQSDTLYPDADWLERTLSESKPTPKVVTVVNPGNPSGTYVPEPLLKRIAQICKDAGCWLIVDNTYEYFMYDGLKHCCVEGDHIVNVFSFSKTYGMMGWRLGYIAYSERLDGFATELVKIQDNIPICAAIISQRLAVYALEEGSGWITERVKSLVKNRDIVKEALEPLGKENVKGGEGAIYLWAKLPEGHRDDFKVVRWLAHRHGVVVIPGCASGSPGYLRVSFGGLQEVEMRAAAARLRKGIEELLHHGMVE
Sequence of UniProt Q944I4 (whole entry, looked up): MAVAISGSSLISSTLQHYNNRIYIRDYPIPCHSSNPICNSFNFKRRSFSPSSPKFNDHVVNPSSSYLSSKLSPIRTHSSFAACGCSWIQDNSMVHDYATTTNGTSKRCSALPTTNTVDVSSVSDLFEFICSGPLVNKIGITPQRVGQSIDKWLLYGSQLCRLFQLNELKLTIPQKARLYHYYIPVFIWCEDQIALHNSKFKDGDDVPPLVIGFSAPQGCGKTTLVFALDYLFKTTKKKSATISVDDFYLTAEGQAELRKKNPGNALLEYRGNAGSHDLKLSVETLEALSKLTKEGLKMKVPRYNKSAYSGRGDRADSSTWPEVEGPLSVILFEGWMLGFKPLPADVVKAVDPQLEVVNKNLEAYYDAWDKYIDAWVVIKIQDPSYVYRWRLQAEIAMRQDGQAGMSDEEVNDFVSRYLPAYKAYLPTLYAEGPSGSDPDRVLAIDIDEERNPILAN
Sequence of UniProt P22310 (whole entry, looked up): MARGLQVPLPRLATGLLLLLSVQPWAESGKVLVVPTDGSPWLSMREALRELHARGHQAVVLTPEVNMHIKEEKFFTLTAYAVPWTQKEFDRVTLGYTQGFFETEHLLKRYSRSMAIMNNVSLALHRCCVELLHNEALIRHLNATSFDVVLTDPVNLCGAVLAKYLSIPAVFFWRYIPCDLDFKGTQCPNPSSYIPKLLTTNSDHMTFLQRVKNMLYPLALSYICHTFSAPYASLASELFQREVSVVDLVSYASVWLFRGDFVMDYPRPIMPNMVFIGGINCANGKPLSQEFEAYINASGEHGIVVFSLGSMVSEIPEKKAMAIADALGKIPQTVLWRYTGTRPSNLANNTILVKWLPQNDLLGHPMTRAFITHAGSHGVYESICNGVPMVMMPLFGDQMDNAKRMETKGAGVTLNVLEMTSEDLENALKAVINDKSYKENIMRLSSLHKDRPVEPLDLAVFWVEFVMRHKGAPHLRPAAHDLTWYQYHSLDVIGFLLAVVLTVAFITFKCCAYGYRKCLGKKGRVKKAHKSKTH
Sequence of UniProt P10632 (whole entry, looked up): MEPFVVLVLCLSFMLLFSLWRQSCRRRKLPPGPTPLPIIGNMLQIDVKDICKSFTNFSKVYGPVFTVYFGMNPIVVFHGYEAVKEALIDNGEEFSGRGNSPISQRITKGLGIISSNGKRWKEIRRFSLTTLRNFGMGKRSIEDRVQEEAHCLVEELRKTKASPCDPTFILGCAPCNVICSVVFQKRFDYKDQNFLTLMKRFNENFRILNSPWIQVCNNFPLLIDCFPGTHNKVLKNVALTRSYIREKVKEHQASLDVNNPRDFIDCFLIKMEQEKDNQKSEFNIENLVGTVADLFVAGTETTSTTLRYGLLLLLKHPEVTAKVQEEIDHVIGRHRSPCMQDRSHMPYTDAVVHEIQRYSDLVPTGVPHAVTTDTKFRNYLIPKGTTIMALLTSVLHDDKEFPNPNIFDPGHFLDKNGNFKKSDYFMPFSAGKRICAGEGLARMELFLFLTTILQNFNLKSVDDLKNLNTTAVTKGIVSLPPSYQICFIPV
Sequence of UniProt Q9LRS0 (whole entry, looked up): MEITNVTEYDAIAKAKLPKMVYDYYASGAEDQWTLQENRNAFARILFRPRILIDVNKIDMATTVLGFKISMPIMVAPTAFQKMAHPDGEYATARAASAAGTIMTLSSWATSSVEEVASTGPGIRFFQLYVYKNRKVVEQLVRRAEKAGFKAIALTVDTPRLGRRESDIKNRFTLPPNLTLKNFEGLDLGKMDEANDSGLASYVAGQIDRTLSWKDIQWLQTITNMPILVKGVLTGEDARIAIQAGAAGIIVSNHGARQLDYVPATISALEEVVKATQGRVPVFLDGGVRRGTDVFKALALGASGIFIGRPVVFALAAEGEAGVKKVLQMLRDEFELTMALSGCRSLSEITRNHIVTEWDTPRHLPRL

Molecule | target or system | test | test system | setting | scale | endpoint | value
B1 (enzyme) | Nc1ncnc2c1ncn2[C@@H]1O[C@H](COP(=O)(O)OP(=O)(O)O)[C@@H](O)[C@H]1O | steady-state kinetics |  | pH 5.5, 25 °C, with: 16 mM PEP |  | Vmax | 17.8 µmol/min/mg
GLAQWIAGV | Jurkat T cells expressing 1G4 TCR | NFAT-eGFP reporter, flow cytometry | peptide | concentration not given, HLA-A*02:01 NY-ESO system |  | reporter activation | 0.17%
enzyme (Bacteroides fragilis, UniProt Q5LAD6) | C[C@@H]1O[C@@H](Oc2ccc([N+](=O)[O-])cc2)[C@@H](O)[C@H](O)[C@@H]1O | steady-state kinetics |  | pH 7, 37 °C |  | Vmax | 0.00187 µmol/min
enzyme (Chlamydomonas reinhardtii, UniProt A0A2K3D977) | NC(=O)C1=CN([C@@H]2O[C@H](COP(=O)(O)OP(=O)(O)OC[C@H]3O[C@@H](n4cnc5c(N)ncnc54)[C@H](O)[C@@H]3O)[C@@H](O)[C@H]2O)C=CC1 | steady-state kinetics |  | pH 7.5, with: DHAP 5 mM |  | Vmax | 114 µmol/min/mg
B2 (enzyme) | O=C(O)CC(=O)C(=O)O | steady-state kinetics |  | pH 7.5, 25 °C |  | Vmax | 63.8 µmol/min/mg
B3 (enzyme) | Nc1nc2c(ncn2[C@@H]2O[C@H](COP(=O)(O)OP(=O)(O)OP(=O)(O)O)[C@@H](O)[C@H]2O)c(=O)[nH]1 | steady-state kinetics |  | pH 7.5, 30 °C |  | Vmax | 2.2 µmol/min
GLMQWVSQV | Jurkat T cells expressing 1G4 TCR | NFAT-eGFP reporter, flow cytometry | peptide | concentration not given, HLA-A*02:01 NY-ESO system |  | reporter activation | 36.7%
B4 (enzyme) | O=Cc1ccc([N+](=O)[O-])cc1 | steady-state kinetics |  | pH 7, 37 °C, with: NADPH 100 µM |  | Vmax | 22 µmol/min/mg
CYP2C8 (Homo sapiens, UniProt P10632) | CC(C)=CCc1cc2c(cc1O)O[C@H](c1ccc(O)cc1)CC2=O | steady-state kinetics |  | pH 7.4, 37 °C |  | Vmax | 0.000363 µmol/min/mg
B5 (RABE1C) | Nc1nc2c(ncn2[C@@H]2O[C@H](COP(=O)(O)OP(=O)(O)OP(=O)(O)O)[C@@H](O)[C@H]2O)c(=O)[nH]1 | steady-state kinetics |  | pH 7.5, 30 °C |  | Vmax | 1.74 µmol/min
B6 (enzyme C76S) | O=[N+]([O-])c1ccc(OP(=O)(O)O)cc1 | steady-state kinetics |  | pH 7, 37 °C, with: Ni2+ 0.25 mM |  | Vmax | 0.139 µmol/min/mg
GLO2 (Arabidopsis thaliana, UniProt Q9LRS0) | O=C(O)CO | steady-state kinetics |  |  |  | Vmax | 24.5 µmol/min/mg
USP14 |  | co-immunoprecipitation | human plasma | unit not given, with: Band 3 peptide 1-56 bait | relative to: negative control | co-IP enrichment | 0
UGT1A4 (Homo sapiens, UniProt P22310) | CN1CCN(CCCN2c3ccccc3Sc3ccc(C(F)(F)F)cc32)CC1 | steady-state kinetics |  | 37 °C, not purified |  | Vmax | 0.000568 µmol/min/mg
enzyme (Arabidopsis thaliana, UniProt Q9C969) | O=C(O)C(=O)Cc1c[nH]c2ccccc12 | steady-state kinetics |  |  |  | Vmax | 1400 µM/min/mg and 2550 µM/min/mg
gdh E198G/N192S/N97F (Bacillus subtilis) | NC(=O)c1ccc[n+]([C@@H]2O[C@H](COP(=O)(O)OP(=O)(O)OC[C@H]3O[C@@H](n4cnc5c(N)ncnc54)[C@H](O)[C@@H]3O)[C@@H](O)[C@H]2O)c1 | steady-state kinetics |  | pH 7, 50 °C |  | Vmax | 422 µmol/min/mg
VQLIMQLM | HLA class I histocompatibility antigen, A alpha chain, allele A*24:02 (Homo sapiens, UniProt P04439) | conformational ELISA | peptide | concentration not given | relative to: positive control peptide, direction not given | binding score | 21.6%
epoetin alfa | UT7/EPO | phosphorylation, agonist, refers to: phospho-STAT5 |  | 10 min |  | EC50 | 9 pM
gdh N97F (Bacillus subtilis) | NC(=O)c1ccc[n+]([C@@H]2O[C@H](COP(=O)(O)OP(=O)(O)OC[C@H]3O[C@@H](n4cnc5c(N)ncnc54)[C@H](O)[C@@H]3O)[C@@H](O)[C@H]2O)c1 | steady-state kinetics |  | pH 8, 55 °C |  | Vmax | 495 µmol/min/mg
enzyme (UniProt A0A097IUD8) | Nc1ncnc2c1ncn2[C@@H]1O[C@H](COP(=O)(O)OP(=O)(O)O)[C@@H](O)[C@H]1O | steady-state kinetics |  | pH 6, 25 °C, with: 16 mM PEP |  | Vmax | 34.3 µmol/min/mg
enzyme (Arabidopsis thaliana, UniProt Q944I4) | O=C(O)[C@H](O)CO | steady-state kinetics |  | pH 7.8, 30 °C |  | Vmax | 78 µmol/min/mg
gdh N192L (Bacillus subtilis) | NC(=O)c1ccc[n+]([C@@H]2O[C@H](COP(=O)(O)OP(=O)(O)OC[C@H]3O[C@@H](n4cnc5c(N)ncnc54)[C@H](O)[C@@H]3O)[C@@H](O)[C@H]2O)c1 | steady-state kinetics |  | pH 7, 40 °C |  | Vmax | 392 µmol/min/mg
QGRWDHETIV | human MAGI1-2/6 PDZ construct (MBP fusion) | automated holdup | peptide, crude extract | concentration not given, uncorrected, unit not given | relative to: biotin control resin, higher = stronger binding | binding intensity | 0.283

Excerpt of the above:
Molecule | target or system | test | test system | setting | scale | endpoint | value
QGRWDHETIV | human MAGI1-2/6 PDZ construct (MBP fusion) | automated holdup | peptide, crude extract | concentration not given, uncorrected, unit not given | relative to: biotin control resin, higher = stronger binding | binding intensity | 0.283
enzyme (Arabidopsis thaliana, UniProt Q9C969) | O=C(O)C(=O)Cc1c[nH]c2ccccc12 | steady-state kinetics |  |  |  | Vmax | 1400 µM/min/mg and 2550 µM/min/mg
